Measured values of several laboratories.
“And” joins repeats or separate records; there may be more than shown. Numbers after ± are the reported error.
Sequence of UniProt P50052 (whole entry, looked up): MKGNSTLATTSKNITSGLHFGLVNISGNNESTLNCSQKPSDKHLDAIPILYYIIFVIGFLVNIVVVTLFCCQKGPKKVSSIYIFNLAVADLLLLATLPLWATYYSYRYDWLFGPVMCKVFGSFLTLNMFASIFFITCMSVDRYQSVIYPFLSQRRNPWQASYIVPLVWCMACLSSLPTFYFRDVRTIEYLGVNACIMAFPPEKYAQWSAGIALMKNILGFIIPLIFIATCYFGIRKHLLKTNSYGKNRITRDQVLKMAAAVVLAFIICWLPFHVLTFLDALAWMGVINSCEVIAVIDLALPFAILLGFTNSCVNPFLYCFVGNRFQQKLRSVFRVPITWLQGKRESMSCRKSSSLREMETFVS

For O=C1NC(=O)c2c1c1cc(F)c[n+]3c1c1c2c2cc(O)ccc2[n]1[Ru-4]312([N]=C=S)[S+]3CC[S+]1CC[S+]2CC3 (stereo not shown), the remaining activity was 83% (Cyclin-dependent kinase 2, with cyclin E (CDK2, Homo sapiens, UniProt P24941); enzyme activity; 100 nM, human enzyme, together with: 10 µM ATP; baseline: untreated).
The relative abundance of COc1ccccc1-c1n[nH]c2nc(NC3CCN(C(=O)Cc4ccc(F)cc4F)CC3)ncc12 is reported as 1.11 (bead binding, competition bead pull-down, refers to: LINJ.03.0380; Leishmania donovani extract; 10 µM; baseline: vehicle).
Under “cells in sub-G0 phase”, Cc1cc(C(=O)Nc2nc3cccc(C)c3n2[C@H]2CCCCN(C(=O)/C=C/CN(C)C)C2)ccn1 is recorded as 1.12% (Trypanosoma brucei; propidium iodide flow cytometry; bloodstream form; concentration not given, 6 h).
With COc1ccccc1-c1ccncc1C(=O)Nc1nnc(OCc2ccc(Cl)cc2)s1 the colony survival was 17.6% (DLD-1 BRCA2-/-; 4 µM, mean of 3 replicates; baseline: untreated).
The CC50 of CC(C)(C)C(=O)OCOP(=O)(OCOC(=O)C(C)(C)C)C1CCCN(O)C1=O (stereo not shown) is reported as > 100 µM (OVCAR-8).
For O=C(O)c1ccc(-c2nc(-c3ccccc3Cl)c3sccn23)cc1, the fold change was 1.21 fold and 1.14 fold and 1.08 fold and 1.13 fold and 1.18 fold and 1.23 fold and 1.15 fold and 1.29 fold (human CD34+ hematopoietic stem cells; megakaryocyte differentiation, flow cytometry, refers to: CD41a; 10 µM, day 3, together with: TPO; baseline: control).
For O=C1NC2(CC2)COc2ncc(F)cc2[C@H]2COCCN2c2ccn3ncc1c3n2, the reticulocytes was 2.71 ± 0.63% (Sprague-Dawley rat, male, blood; oral, 10 mg/kg/day, end of recovery, 4-week repeated-dose toxicity; baseline: red blood cells).
The relative abundance of COc1ccccc1-c1n[nH]c2nc(N[C@H]3CC[C@H](NS(=O)(=O)CC(C)C)CC3)ncc12 is reported as 1.12 (bead binding, competition bead pull-down, refers to: LMJF.21.1860; Leishmania donovani extract; 10 µM; baseline: vehicle).
CS(C)(=O)=Nc1ccc(-c2ccc(-c3nc4cc(O[C@@H]5CO[C@H]6[C@@H]5OC[C@H]6O)[nH]c4cc3F)cc2)cc1 gave an inhibition of -6% (AGTR2 (Homo sapiens, UniProt P50052); ligand displacement, radioligand; 10 µM).
The selectivity ratio of CC(=O)NCSC[C@H](NC(=O)[C@@H]1CCCN1C(=O)[C@H](C)NC(=O)[C@@H](NC(=O)CNC(=O)[C@@H](NC(=O)[C@H](Cc1c[nH]c2ccccc12)NC(=O)[C@H](C)NC(=O)CNC(=O)[C@H](CO)NC(=O)[C@H](C)NC(=O)[C@@H]1CCCN1C(=O)[C@H](Cc1c[nH]c2ccccc12)NC(=O)[C@H](C)NC(=O)[C@H](C)NC(=O)[C@@H](N)Cc1ccc(O)cc1)[C@@H](C)O)[C@@H](C)O)C(=O)N[C@@H](CO)C(=O)N[C@@H](C)C(=O)NCC(=O)N[C@H](C(=O)NCCOCCOCCOCCOCCOCCOCCOCCOCCOCCOCCOCCOCCC(=O)N[C@@H](CS)C(N)=O)[C@@H](C)O is reported as 1.2 ± 0.44 (H1155 lung large cell carcinoma; cell binding, phage binding, refers to: output/input phage; 10 min, 37 °C; baseline: control phage).
With Cc1cc(Oc2nc(N3CC[C@@H](c4ccncc4)C3)ncc2F)[nH]n1 the IC50 was 56.2 µM (skin cancer cell lines; cell proliferation; average over lines).
O=C(C[Se]C(=O)c1ccc2ccccc2c1)Nc1cccc(C(F)(F)F)c1 has a CC50 of 7.05 µM (NCI60 prostate subpanel (PC-3, DU-145); cytotoxicity, inhibitor; five-dose).
For CSCC[C@H](NC(=O)[C@@H](NC(=O)[C@H](CCC(N)=O)NC(=O)[C@H](CO)NC(=O)[C@@H](N)C(C)C)[C@@H](C)O)C(=O)N[C@@H](CCCNC(=N)N)C(=O)N[C@@H](CCC(N)=O)C(=O)N[C@H](C(=O)N[C@@H](C)C(=O)N[C@H](C(=O)N1CCC[C@H]1C(=O)N[C@@H](CC(C)C)C(=O)N[C@@H](CC(C)C)C(=O)N[C@@H](Cc1c[nH]c2ccccc12)C(=O)N[C@@H](Cc1ccccc1)C(=O)N[C@@H](Cc1c[nH]c2ccccc12)C(=O)N[C@H](C(=O)NCC(=O)N[C@@H](CO)C(=O)N[C@@H](CC(C)C)C(=O)NCCOCCOCCOCCOCCOCCOCCOCCOCCOCCOCCOCCOCCC(=O)N[C@@H](CS)C(N)=O)[C@@H](C)O)C(C)C)[C@@H](C)O, the selectivity ratio was 14 ± 4.6 (H157 lung squamous carcinoma; cell binding, phage binding, refers to: output/input phage; 10 min, 37 °C; baseline: control phage).
O=C(C[Se]C(=O)c1ccccc1)Nc1cccc(C(F)(F)F)c1: “mean growth percent” -62.9% (NCI60 prostate subpanel (PC-3, DU-145); cell growth; 10 µM, 48 h, one-dose).
With CC(C)CC(O)(CC(C)C)c1cn(C(=O)N2CCCC2)nn1 the protein level was 1.01 (mouse T-cells; SILAC proteomics, refers to: S100A4; 1 nM, 6 h, unit not given; baseline: DMSO).
With O=C(C[Se]C(=O)c1ccco1)Nc1cccc(C(F)(F)F)c1 the CC50 was 44.2 µM (NCI60 NSCLC subpanel; NCI60 five-dose screen).
For CC(C)[C@H](NC(=O)[C@H](CCCNC(=N)N)NC(=O)[C@@H]1CCCN1C(=O)[C@@H](NC(=O)[C@H](C)NC(=O)[C@H](Cc1ccc(O)cc1)NC(=O)[C@H](CCC(N)=O)NC(=O)[C@H](CCCCN)NC(=O)[C@H](CCCNC(=N)N)NC(=O)[C@@H]1CCCN1C(=O)[C@H](CCC(=O)O)NC(=O)[C@@H](NC(=O)[C@H](C)N)[C@@H](C)O)[C@@H](C)O)C(=O)N[C@@H](Cc1ccccc1)C(=O)N[C@@H](Cc1c[nH]c2ccccc12)C(=O)N[C@H](C(=O)N[C@@H](CC(=O)O)C(=O)N[C@@H](C)C(=O)N1CCC[C@H]1C(=O)NCC(=O)NCCOCCOCCOCCOCCOCCOCCOCCOCCOCCOCCOCCOCCC(=O)N[C@@H](CS)C(N)=O)[C@@H](C)O, the selectivity ratio was 3.9 ± 1.9 (H1264 lung adenocarcinoma; cell binding, phage binding, refers to: output/input phage; 10 min, 37 °C; baseline: control phage).
O=C(C[Se]C(=O)c1cccs1)Nc1cccc(C(F)(F)F)c1 has a mean TGI of 3.35 µM (NCI60 prostate subpanel (PC-3, DU-145); total growth inhibition, inhibitor; five-dose).
For CC(C)C[C@H](NC(=O)[C@H](CC(=O)O)NC(=O)CNC(=O)[C@@H](N)CCCNC(=N)N)C(=O)N[C@@H](C)C(=O)N[C@H](C(=O)N[C@@H](CC(C)C)C(=O)N[C@@H](CCCNC(=N)N)C(=O)N[C@@H](CCC(N)=O)C(=O)N[C@@H](CC(C)C)C(=O)N[C@@H](C)C(=O)N[C@@H](CCC(N)=O)C(=O)N[C@@H](CCC(=O)O)C(=O)N[C@@H](CC(=O)O)C(=O)NCC(=O)N[C@H](C(=O)N[C@H](C(=O)NCC(=O)N[C@H](C(=O)N[C@@H](CCCNC(=N)N)C(=O)NCCOCCOCCOCCOCCOCCOCCOCCOCCOCCOCCOCCOCCC(=O)N[C@@H](CS)C(N)=O)C(C)C)C(C)C)C(C)C)[C@@H](C)O, the selectivity ratio was 230 ± 99 (H1648; phage binding; 10 min, 37 °C; baseline: control phage).

Repeated from above:
With O=C(C[Se]C(=O)c1ccco1)Nc1cccc(C(F)(F)F)c1 the CC50 was 44.2 µM (NCI60 NSCLC subpanel; NCI60 five-dose screen).
For CC(C)[C@H](NC(=O)[C@H](CCCNC(=N)N)NC(=O)[C@@H]1CCCN1C(=O)[C@@H](NC(=O)[C@H](C)NC(=O)[C@H](Cc1ccc(O)cc1)NC(=O)[C@H](CCC(N)=O)NC(=O)[C@H](CCCCN)NC(=O)[C@H](CCCNC(=N)N)NC(=O)[C@@H]1CCCN1C(=O)[C@H](CCC(=O)O)NC(=O)[C@@H](NC(=O)[C@H](C)N)[C@@H](C)O)[C@@H](C)O)C(=O)N[C@@H](Cc1ccccc1)C(=O)N[C@@H](Cc1c[nH]c2ccccc12)C(=O)N[C@H](C(=O)N[C@@H](CC(=O)O)C(=O)N[C@@H](C)C(=O)N1CCC[C@H]1C(=O)NCC(=O)NCCOCCOCCOCCOCCOCCOCCOCCOCCOCCOCCOCCOCCC(=O)N[C@@H](CS)C(N)=O)[C@@H](C)O, the selectivity ratio was 3.9 ± 1.9 (H1264 lung adenocarcinoma; cell binding, phage binding, refers to: output/input phage; 10 min, 37 °C; baseline: control phage).
O=C(C[Se]C(=O)c1cccs1)Nc1cccc(C(F)(F)F)c1 has a mean TGI of 3.35 µM (NCI60 prostate subpanel (PC-3, DU-145); total growth inhibition, inhibitor; five-dose).
